{"data": "Experimental data pooled from the literature", "note": "Each numbered part is a random draw from the data of one study; scales do not carry over between parts.", "sequence of UniProt Q9UKE5 (whole entry, looked up)": "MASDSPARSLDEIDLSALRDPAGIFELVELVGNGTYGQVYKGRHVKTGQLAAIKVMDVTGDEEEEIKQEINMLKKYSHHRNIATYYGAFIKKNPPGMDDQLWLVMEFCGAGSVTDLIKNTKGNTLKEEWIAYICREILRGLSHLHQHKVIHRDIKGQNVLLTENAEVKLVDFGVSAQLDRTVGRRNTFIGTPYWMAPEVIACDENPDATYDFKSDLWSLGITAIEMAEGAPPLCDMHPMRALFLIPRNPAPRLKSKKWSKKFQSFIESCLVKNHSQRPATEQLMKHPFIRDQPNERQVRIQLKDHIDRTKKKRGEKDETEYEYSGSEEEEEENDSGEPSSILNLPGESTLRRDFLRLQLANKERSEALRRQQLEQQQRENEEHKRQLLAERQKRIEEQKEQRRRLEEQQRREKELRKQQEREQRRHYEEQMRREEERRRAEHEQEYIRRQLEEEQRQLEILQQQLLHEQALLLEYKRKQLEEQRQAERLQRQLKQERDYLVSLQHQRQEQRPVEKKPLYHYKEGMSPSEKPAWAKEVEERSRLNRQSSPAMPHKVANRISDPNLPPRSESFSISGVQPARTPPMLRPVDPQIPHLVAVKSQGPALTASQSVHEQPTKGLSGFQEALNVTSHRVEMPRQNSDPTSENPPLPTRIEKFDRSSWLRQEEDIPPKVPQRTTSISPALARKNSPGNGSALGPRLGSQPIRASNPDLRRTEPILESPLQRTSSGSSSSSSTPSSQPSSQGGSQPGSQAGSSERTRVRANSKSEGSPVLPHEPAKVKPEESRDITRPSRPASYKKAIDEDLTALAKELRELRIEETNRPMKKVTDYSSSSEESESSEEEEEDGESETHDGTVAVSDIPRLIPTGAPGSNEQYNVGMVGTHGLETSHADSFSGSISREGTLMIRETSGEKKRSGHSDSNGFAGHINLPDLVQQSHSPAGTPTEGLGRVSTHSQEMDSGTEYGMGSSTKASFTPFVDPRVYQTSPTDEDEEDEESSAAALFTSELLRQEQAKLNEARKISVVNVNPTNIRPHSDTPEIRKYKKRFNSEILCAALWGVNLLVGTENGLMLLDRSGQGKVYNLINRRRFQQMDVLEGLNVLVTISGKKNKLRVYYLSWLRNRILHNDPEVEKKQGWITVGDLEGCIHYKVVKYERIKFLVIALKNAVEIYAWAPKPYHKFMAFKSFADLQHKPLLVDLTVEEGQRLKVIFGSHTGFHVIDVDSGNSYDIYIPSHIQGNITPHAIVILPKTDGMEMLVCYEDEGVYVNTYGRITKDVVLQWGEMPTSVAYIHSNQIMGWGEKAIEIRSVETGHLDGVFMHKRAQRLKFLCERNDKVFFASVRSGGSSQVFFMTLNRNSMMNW", "sequence of UniProt Q14004 (whole entry, looked up)": "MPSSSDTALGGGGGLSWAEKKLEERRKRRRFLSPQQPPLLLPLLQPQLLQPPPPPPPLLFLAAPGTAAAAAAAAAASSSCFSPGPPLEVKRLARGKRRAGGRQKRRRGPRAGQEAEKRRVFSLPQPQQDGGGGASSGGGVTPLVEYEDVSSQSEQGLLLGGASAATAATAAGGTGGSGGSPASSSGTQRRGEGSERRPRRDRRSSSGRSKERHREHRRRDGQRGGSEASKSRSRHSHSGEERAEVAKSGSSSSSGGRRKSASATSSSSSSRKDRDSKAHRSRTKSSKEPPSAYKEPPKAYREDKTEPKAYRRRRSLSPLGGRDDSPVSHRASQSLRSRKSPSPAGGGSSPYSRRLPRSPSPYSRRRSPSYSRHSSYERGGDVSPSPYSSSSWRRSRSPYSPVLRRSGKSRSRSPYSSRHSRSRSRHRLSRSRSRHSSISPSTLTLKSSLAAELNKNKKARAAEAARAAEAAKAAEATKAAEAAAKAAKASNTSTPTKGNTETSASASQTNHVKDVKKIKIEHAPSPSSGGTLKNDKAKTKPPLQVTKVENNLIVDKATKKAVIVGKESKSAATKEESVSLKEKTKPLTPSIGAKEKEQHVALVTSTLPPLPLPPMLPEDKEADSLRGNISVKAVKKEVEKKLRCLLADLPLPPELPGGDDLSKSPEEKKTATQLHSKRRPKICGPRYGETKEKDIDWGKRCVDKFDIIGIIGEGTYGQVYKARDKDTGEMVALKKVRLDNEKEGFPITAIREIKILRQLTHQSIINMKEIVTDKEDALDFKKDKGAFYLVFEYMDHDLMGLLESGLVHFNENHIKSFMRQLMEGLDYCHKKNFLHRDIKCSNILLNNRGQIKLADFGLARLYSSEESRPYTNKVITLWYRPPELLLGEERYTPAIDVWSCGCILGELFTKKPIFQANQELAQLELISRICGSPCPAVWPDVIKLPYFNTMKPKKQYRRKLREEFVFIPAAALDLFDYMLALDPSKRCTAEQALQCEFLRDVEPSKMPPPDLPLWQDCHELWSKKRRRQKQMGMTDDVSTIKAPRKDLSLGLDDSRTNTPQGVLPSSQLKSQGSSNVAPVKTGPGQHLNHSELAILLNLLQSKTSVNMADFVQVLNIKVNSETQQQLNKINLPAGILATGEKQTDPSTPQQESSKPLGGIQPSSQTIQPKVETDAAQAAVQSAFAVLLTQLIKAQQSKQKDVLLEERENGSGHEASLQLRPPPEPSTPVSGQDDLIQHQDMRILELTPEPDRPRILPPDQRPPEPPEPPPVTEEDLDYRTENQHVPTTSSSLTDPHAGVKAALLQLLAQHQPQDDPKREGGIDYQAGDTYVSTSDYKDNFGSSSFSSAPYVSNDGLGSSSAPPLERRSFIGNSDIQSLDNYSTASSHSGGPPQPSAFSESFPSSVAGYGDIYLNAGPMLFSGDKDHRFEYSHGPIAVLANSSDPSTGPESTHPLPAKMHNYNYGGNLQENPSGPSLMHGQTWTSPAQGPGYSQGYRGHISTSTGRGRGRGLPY", "sequence of UniProt Q15208 (whole entry, looked up)": "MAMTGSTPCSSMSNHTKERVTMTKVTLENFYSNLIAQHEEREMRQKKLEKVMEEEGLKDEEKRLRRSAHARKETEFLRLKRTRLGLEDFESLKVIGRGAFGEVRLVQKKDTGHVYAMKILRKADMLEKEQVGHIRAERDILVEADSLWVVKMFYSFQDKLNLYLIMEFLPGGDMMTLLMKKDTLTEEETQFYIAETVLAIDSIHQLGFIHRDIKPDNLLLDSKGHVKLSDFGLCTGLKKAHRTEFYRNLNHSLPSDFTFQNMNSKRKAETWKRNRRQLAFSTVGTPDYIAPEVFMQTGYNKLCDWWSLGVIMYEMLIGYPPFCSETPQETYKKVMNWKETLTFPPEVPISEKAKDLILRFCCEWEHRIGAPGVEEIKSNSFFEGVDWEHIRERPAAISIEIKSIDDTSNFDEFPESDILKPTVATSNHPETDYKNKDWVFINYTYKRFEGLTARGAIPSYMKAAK", "sequence of UniProt Q13873 (whole entry, looked up)": "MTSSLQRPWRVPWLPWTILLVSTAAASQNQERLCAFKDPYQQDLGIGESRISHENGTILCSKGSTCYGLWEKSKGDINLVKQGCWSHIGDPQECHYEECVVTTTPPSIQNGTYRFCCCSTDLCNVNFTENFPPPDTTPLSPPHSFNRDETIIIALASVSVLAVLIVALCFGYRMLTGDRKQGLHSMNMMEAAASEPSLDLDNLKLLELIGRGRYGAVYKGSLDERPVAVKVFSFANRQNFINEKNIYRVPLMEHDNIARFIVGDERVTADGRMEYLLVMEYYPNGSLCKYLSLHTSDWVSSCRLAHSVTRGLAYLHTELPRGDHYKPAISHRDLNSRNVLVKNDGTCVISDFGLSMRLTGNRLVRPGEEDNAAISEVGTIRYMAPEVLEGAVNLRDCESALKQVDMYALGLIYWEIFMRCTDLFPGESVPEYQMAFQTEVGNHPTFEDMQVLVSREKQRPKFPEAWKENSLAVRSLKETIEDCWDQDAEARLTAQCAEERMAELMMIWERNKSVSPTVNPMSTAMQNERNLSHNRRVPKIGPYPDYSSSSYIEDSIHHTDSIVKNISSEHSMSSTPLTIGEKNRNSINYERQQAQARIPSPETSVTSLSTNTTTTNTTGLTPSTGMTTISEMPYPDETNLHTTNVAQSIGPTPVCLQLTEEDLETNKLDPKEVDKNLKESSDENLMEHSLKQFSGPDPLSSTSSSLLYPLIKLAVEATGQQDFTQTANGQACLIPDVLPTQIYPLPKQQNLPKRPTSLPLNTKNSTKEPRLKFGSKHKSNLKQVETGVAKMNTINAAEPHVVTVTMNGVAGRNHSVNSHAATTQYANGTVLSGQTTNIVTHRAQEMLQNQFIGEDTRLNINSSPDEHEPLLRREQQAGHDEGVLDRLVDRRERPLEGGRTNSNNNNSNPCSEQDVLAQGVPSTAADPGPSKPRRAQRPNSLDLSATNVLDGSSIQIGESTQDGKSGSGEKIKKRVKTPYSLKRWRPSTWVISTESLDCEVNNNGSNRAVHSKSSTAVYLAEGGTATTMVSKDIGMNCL", "sequence of UniProt Q86Y07 (whole entry, looked up)": "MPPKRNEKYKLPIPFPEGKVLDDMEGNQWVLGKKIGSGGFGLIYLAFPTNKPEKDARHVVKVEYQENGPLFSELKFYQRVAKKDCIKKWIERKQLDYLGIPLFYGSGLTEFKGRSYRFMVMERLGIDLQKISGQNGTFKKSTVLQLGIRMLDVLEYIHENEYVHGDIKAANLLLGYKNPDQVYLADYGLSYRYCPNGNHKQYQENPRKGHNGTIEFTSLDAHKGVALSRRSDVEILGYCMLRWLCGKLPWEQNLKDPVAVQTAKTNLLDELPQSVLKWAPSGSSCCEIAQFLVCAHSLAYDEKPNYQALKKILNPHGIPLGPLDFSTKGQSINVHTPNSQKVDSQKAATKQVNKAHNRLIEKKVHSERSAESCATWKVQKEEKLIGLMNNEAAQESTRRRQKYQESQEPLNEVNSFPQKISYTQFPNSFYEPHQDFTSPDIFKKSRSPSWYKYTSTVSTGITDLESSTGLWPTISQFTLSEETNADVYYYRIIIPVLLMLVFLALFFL"}
{"data": "Set 1", "Compound": "O=c1nc(-c2ccccn2)sc2ccccc12", "technique": "competition with immobilised ligand", "concentration": "1 µM"}
{"target": "VRK2 (Homo sapiens, UniProt Q86Y07)", "read-out": "binding", "remaining binding": "74%"}
{"target": "CDKL1 (Homo sapiens, UniProt Q00532)", "read-out": "binding", "remaining binding": "87%"}
{"target": "CDK13 (Homo sapiens, UniProt Q14004)", "read-out": "binding", "remaining binding": "75%"}
{"target": "MARK4 (Homo sapiens, UniProt Q96L34)", "read-out": "binding", "remaining binding": "100%"}
{"target": "EGFR (Homo sapiens, UniProt P00533, del746-750)", "read-out": "cell-free assay", "remaining binding": "100%"}
{"target": "STK38 (Homo sapiens, UniProt Q15208)", "read-out": "binding", "remaining binding": "76%"}
{"target": "Ribosomal protein S6 kinase alpha-6, N-terminal kinase domain (RPS6KA6, Homo sapiens, UniProt Q9UK32)", "read-out": "binding", "remaining binding": "95%"}
{"target": "CAMK1G (Homo sapiens, UniProt Q96NX5)", "read-out": "binding", "remaining binding": "100%"}
{"target": "HASPIN (Homo sapiens, UniProt Q8TF76)", "read-out": "cell-free assay", "remaining binding": "100%"}
{"target": "RAF1 (Homo sapiens, UniProt P04049)", "read-out": "binding", "remaining binding": "100%"}
{"target": "ABL2 (Homo sapiens, UniProt P42684)", "read-out": "binding", "remaining binding": "87%"}
{"target": "DYRK1B (Homo sapiens, UniProt Q9Y463)", "read-out": "cell-free assay", "remaining binding": "100%"}
{"target": "TNIK (Homo sapiens, UniProt Q9UKE5)", "read-out": "binding", "remaining binding": "83%"}
{"target": "BMPR2 (Homo sapiens, UniProt Q13873)", "read-out": "cell-free assay", "remaining binding": "100%"}
{"data": "Set 2", "target": "Fragile X messenger ribonucleoprotein 1, C-terminal low-complexity region (Fmr1, Mus musculus, UniProt P35922)", "technique": "RNA Bind-n-Seq", "form": "RNA", "matrix": "in vitro", "concentration": "200 nM", "setting": "whole 134-nt RNA, ends assumed", "together with": "150 mM KCl", "relative to": "input library", "reading": "higher = stronger binding"}
{"Sequence": "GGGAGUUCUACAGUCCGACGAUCCUCAAGUCCUGUGCUACACAUCGUAUGUACCGAAUCGGGGCCGGCCGGGCCGGAAAGUAUUAUGUUACGCCGUUCGGAUCUGCACUUCCAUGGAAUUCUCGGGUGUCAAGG", "log2 enrichment": -0.0814}
{"Sequence": "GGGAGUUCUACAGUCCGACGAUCGUCCUGUGCUACACAUCGUAUGUACCGAAUCGGGGUUUUUGGGUUUUUGGUUUUUGGGGAAAGUAUUAUGUUACGCCGUUCGGAUCUGCAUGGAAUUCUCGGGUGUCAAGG", "log2 enrichment": 0.0202}
{"Sequence": "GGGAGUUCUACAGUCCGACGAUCCCUCAAGUCCUGUGCUACACAUCGUAUGUACCGAAUCGGAAAGGAGGUUUGGAAAGUAUUAUGUUACGCCGUUCGGAUCUGCACUUCCAGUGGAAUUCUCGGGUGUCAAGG", "log2 enrichment": -0.0682}
{"Sequence": "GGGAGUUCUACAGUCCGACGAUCAAGUCCUGUGCUACACAUCGUAUGUACCGAAUCGGGCCCCGGGGCCCCGGCCCCGGGAAAGUAUUAUGUUACGCCGUUCGGAUCUGCACUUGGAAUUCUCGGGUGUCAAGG", "log2 enrichment": -1.99}
{"Sequence": "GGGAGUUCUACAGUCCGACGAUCUGGCCCUGGUGGCAUGCGGGGAGGAAGAGGUGGCCUCAUGGAUCGUGGUGGUCCCGGUGGAAUGUGCAGAGGUGGCCGUGGUGGAGACAGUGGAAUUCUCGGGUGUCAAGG", "log2 enrichment": 0.366}
{"Sequence": "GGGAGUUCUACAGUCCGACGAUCCCUGUGCUACACAUCGUAUGUACCGAAUCGGGGAGGGGUUUUUUUGGGGAAAAAAAGGGGAAAGUAUUAUGUUACGCCGUUCGGAUCUGCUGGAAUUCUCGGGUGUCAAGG", "log2 enrichment": 0.0419}
{"Sequence": "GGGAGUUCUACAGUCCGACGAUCCAAGUCCUGUGCUACACAUCGUAUGUACCGAAUCGGCCCGGGGCCCGGGCCCGGGAAAGUAUUAUGUUACGCCGUUCGGAUCUGCACUUCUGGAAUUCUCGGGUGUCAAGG", "log2 enrichment": -0.505}
{"Sequence": "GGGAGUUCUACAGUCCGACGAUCCCUGUGCUACACAUCGUAUGUACCGAAUCGGCCCCCCGGGCCCCCCGGGGCCCCCCGGGGAAAGUAUUAUGUUACGCCGUUCGGAUCUGCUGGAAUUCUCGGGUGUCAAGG", "log2 enrichment": -0.786}
{"data": "Set 3", "target": "PABPC1L2, full length, GST fusion (mouse, UniProt A0ABA7IW68)", "technique": "RNAcompete", "form": "RNA", "matrix": "in vitro", "concentration": "20 nM", "setting": "7-mer, probes averaged, single round", "relative to": "mean of 7-mers", "reading": "higher = stronger binding", "Target sequence (chain)": "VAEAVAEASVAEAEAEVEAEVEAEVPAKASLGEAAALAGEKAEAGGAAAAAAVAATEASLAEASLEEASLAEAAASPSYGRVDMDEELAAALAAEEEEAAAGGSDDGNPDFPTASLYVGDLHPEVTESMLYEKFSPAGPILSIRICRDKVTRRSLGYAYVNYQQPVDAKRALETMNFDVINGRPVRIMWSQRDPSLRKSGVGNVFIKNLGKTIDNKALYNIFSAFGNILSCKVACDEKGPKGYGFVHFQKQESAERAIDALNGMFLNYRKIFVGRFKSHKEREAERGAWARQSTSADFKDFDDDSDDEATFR"}
{"Sequence": "GAUACUC", "7-mer Z-score": -0.315}
{"Sequence": "AAAAUCA", "7-mer Z-score": 3.8}
{"Sequence": "CAGCAUA", "7-mer Z-score": -0.141}
{"Sequence": "CGUGCCA", "7-mer Z-score": -0.253}
{"Sequence": "AAAGGUC", "7-mer Z-score": 0.418}
{"Sequence": "UACGCGC", "7-mer Z-score": -0.262}
{"Sequence": "UCAAGAA", "7-mer Z-score": 0.234}
{"Sequence": "GAGAAAA", "7-mer Z-score": 3.91}
{"data": "Set 4", "host": "mouse", "matrix": "microsomes or S9", "concentration": "2 µM", "time": "0.5 h"}
{"SMILES": "CC(C)COc1cc(=O)n2c(c1C(=O)NCC1CC1)CCCCC2", "remaining compound": "42.8%"}
{"SMILES": "Cc1ccc2oc(=O)n([C@H]3c4cc(Br)cnc4OC(C)(C)[C@@H]3O)c2c1", "remaining compound": "4.47%"}
{"SMILES": "[O-][S+](CCc1ccccc1)Cc1c(Cl)cccc1Cl (centres unmarked)", "remaining compound": "0.615%"}
{"SMILES": "CC(=O)Nc1cccc(C2CCN(C(=O)c3cc4cc(-c5ccc(Cl)cc5)c5ccccc5c4s3)CC2)c1", "remaining compound": "75.5%"}
{"SMILES": "O=C(NCCc1c[nH]c2ccccc12)c1c(OCC2CC2)cc(=O)n2c1CCOCC2", "remaining compound": "22.9%"}
